Literature values that unrelated publications cite.
Lines come from different studies, so protocols differ. Numbers after ± are the reported error.

c1ccc2c(c1)Cc1ccccc1-2  Km (substrate; human liver microsomes): 4.16 µM
O=S(=O)([O-])C(F)(F)C(F)(F)C(F)(F)C(F)(F)C(F)(F)C(F)(F)F.[K+]  activity (CYP1A2; concentration not given): inactive
CN(C)CCCN1c2ccccc2CCc2ccc(Cl)cc21  fraction unbound (mouse): 0.004
O=S(=O)(O)C(F)(F)C(F)(F)C(F)(F)C(F)(F)F  IC50 (CYP1A2; inhibitor; Tox21 screening): 57600 ± 20400 nM
Cc1c(C(=O)NN)nn(-c2ccc(Cl)cc2Cl)c1-c1ccc(Cl)cc1  Ki (CB1 receptor; binding): 374 nM
CCN(CC)CCNC(=O)c1cc(Cl)c(N)cc1OC  fraction unbound (dog): 0.294
CCCCCOc1ccc(-c2ccc(-c3ccc(C(=O)N[C@H]4C[C@@H](O)[C@@H](O)NC(=O)[C@@H]5[C@@H](O)[C@@H](C)CN5C(=O)[C@H]([C@@H](C)O)NC(=O)[C@H]([C@H](O)[C@@H](O)c5ccc(O)cc5)NC(=O)[C@@H]5C[C@@H](O)CN5C(=O)[C@H]([C@@H](C)O)NC4=O)cc3)cc2)cc1  volume of distribution (end-stage renal disease patients; 50 mg single dose, predialysis): 37.9 ± 3.8 L
CC(C)C[C@H]1C(=O)N2CCC[C@H]2[C@]2(O)O[C@](NC(=O)[C@@H]3C=C4c5cccc6[nH]c(Br)c(c56)C[C@H]4N(C)C3)(C(C)C)C(=O)N12  fraction unbound (mouse): 0.002
CCCCCCC(C)(C)c1cc(OC)c2c(c1)OC(C)(C)c1ccc(C(=O)OC)cc1-2  Ki (CB2 receptor; binding): 529 nM
O=C(O)C(F)(F)C(F)(F)C(F)(F)C(F)(F)C(F)(F)C(F)(F)C(F)(F)F  IC50 (CYP3A4; inhibitor; Tox21 screening): inactive
O=C(O)[C@H](c1ccccc1)[C@H]1CCCCN1  Tmax (human, CES1 wild type, plasma; oral, 10 mg methylphenidate, single dose, median): 2.5 h

For quick reference, copied from above:
CCN(CC)CCNC(=O)c1cc(Cl)c(N)cc1OC  fraction unbound (dog): 0.294
